# Assay results of several laboratories.
# A part holds a random share of what one study measured.

# Study 1 — method: protein-binding microarray; form: double-stranded DNA, one strand shown; sample: in vitro; concentration: 2200 nM top; notes: 60-bp whole probe; added: salmon DNA 0.4 mg/ml; relative to: random background probes; direction: higher = stronger binding; shared flanks, not repeated: GCCTAGCAC … GTCTTGATTCGCTTGACGCTGCTG
# Target: Interferon regulatory factor 7, full length, phosphomimetic (IRF7, Homo sapiens, UniProt Q92985, residues 1-503, S471D/S472D/S475D/S476D/S477D/S483D/S484D/S487D)
# Target sequence (chain): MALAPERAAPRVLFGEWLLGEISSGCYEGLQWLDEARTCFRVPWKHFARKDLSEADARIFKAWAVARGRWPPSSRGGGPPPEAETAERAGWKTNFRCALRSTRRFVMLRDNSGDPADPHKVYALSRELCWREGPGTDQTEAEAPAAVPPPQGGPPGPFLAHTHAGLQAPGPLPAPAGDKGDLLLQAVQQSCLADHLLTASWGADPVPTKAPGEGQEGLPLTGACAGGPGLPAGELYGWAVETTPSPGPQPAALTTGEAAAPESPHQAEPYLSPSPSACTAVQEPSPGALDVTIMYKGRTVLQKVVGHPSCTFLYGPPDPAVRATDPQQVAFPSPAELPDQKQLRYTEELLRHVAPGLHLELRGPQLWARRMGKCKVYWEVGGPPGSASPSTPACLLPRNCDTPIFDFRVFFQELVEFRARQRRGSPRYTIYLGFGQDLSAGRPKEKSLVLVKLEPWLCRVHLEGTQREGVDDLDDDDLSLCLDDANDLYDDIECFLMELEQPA
Sequence,fitted relative affinity [z-score]
TTTTTTTCCTAATTGAACCCGTGCTAG,1.65
TATTATTTGCCTTGCATTTTGTGCTAG,0.794
TTAGCTCTCAGACTGGATTAGTGCTAG,-0.21
TTTTTTTTATCAATCATTTTGTGCTAG,0.967
GACGATTTCGTGTTTCGAGACGTGCTA,4.12
TCAAAGATTGCCGTTTCCACTGTGCTA,0.502

# Study 2 — method: protein binding microarray; form: double-stranded DNA, one strand shown; sample: in vitro; concentration: not given; relative to: not given; direction: higher = stronger binding
# Target: Histone acetyltransferase KAT6A, winged helix 1, GST fusion (KAT6A, Homo sapiens, UniProt Q92794, residues 1-85)
# Notes: 8-mer, flanks averaged, mean of 2 arrays, mostly near background
# Construct (chain): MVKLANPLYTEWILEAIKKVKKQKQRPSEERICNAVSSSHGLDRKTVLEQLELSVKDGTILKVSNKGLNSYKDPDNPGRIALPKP
Sequence,E-score
AAAAGGTG,-0.181
AGCATTCA,-0.254
CAATTCTC,-0.151
AAGTGAAT,-0.0946
CCTGAGAA,-0.144
CTATCCCC,-0.111
GTAGACAC,0.034
GAGCCCGC,0.311

# Study 3 — method: competition protein-binding microarray; form: double-stranded DNA, one strand shown; sample: in vitro; concentration: 2 µM; added: Pho4 competitor, 0.05 µM; direction: higher = stronger binding; shared flanks, not repeated: … GTCTTGATTCGCTTGACGCTGCTG
# Target: Centromere-binding protein 1, full length, His-tagged (CBF1, Saccharomyces cerevisiae, UniProt P17106, residues 1-351)
# UniProt P17106, sequence (whole entry, looked up): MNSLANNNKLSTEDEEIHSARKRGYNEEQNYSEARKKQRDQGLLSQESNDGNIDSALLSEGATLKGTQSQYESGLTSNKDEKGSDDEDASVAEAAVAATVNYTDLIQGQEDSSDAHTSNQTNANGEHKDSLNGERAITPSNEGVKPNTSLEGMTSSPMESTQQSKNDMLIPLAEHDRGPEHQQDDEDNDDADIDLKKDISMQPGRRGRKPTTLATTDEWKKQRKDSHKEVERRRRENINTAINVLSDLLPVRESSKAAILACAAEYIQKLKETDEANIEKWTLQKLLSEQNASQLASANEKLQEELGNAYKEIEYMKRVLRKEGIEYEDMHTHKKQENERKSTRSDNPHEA
# Notes: whole 60-bp probe, lowest competitor level
Sequence,fluorescence intensity
CTTCTGTAAATTTGTTTGGTGGGTGGACGCGCCCCG,87.6 a.u.
ATACGAACCATCCATCACGTGCAAAGACAAACCCTA,4560 a.u.
CATACCCAACCTTGATCGGTGGGTGAAGATATTTGT,68.1 a.u.
AAGGCCATAAAAAGAACCGTGACGGGGCCAAACAGA,104 a.u.
AAAGCGGTAATTTGAACTGTGGGTGCAGATATCTAT,71.9 a.u.
ATACGGCAGCAGCCTTTCGTGCTTTCCGCCTATTTT,60 a.u.
AATTCACTTGATTCTCATGTGAGTACATCAGAAAAA,105 a.u.

# Mixed results
Molecule,target,test,test system,setting,scale,quantity,result
"PhoQ, residues 284 288 289 292 302 303 AQGLTV","PhoP, residues 12 14 15 18 19 IFFTR (Escherichia coli, UniProt P23836)","Sort-seq, refers to: YFP reporter",E. coli,"PhoQ-PhoP variant library, added: 10 µM Mg2+","relative to: high Mg2+ state, higher = stronger signaling",fold induction,22.2
